Measurements of several laboratories.
Each numbered part is a random draw from the data of one study; scales do not carry over between parts. Substitutions count along the parent as printed.

Set 1 — target: CCNF, cyclin fold, Cln2 fusion (human); technique: yeast growth competition, sequencing; matrix: yeast; setting: weak parent motif; baseline: not given; direction: higher = stronger binding
Starting sequence: PKN2 docking peptide (human); VSAVQKLDFSDTM; partner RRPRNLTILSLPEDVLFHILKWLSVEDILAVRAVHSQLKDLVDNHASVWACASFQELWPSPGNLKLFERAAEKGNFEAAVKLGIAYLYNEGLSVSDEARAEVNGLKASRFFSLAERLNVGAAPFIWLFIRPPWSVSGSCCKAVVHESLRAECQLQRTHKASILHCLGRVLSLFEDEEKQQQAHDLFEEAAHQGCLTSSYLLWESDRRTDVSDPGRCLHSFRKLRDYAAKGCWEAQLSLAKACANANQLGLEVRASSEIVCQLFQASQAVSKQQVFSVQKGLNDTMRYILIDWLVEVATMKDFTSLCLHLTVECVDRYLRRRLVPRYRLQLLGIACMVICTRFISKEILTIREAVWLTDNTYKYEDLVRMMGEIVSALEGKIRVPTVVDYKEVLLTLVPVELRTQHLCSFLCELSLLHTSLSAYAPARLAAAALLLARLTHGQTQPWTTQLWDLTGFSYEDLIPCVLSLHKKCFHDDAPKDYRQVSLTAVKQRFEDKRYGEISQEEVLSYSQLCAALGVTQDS
| Substitution | normalised enrichment score |
| --- | --- |
| VSAVQTLDFSDTM [K6T] | -0.0615 |
| VSAVQKLDKSDTM [F9K] | 0.214 |
| VSAVQKLDFHDTM [S10H] | -0.0227 |
| VSAVQKLMFSDTM [D8M] | 0.601 |
| VSAVQKLDFSDTE [M13E] | 0.0583 |
| VSRVQKLDFSDTM [A3R] | -0.289 |
| VSAVQKLKFSDTM [D8K] | 0.746 |
| VSAVQKLDFSNTM [D11N] | 1.04 |
| VSAVQKLDFSSTM [D11S] | 1.17 |
| VSAVQKLNFSDTM [D8N] | 0.469 |

Set 2 — technique: RNA Bind-n-Seq; form: RNA; matrix: in vitro; concentration: not given; baseline: input RNA pool; direction: higher = stronger binding
Target: RING finger protein unkempt homolog, zinc fingers 1-6, GST-SBP tag (UNK, Homo sapiens, UniProt Q9C0B0, residues 30-357)
Sequence of UniProt Q9C0B0 (30-357, looked up): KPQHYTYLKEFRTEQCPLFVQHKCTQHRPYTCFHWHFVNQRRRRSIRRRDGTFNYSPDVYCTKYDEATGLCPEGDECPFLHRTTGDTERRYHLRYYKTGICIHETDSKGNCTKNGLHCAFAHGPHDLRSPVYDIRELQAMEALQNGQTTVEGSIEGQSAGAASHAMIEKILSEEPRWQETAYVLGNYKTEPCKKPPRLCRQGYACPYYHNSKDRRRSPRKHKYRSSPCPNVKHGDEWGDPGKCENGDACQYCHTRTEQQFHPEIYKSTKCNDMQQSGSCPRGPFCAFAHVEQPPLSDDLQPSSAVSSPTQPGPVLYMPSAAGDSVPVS
Setting: RNA with constant flanks, human and mouse sites, ends assumed
| Oligonucleotide | bound/input enrichment |
| --- | --- |
| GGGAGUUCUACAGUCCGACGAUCAGGGCCUUGCAGAAACUACAGGAGAACACCUAUAUAAAACUUGUGAUUUCCAACUUGGAGAAUAGUCUUCUUCAAUUCCAUAUUCAUGCGUGGCAUGAAUCAUCUCAUAUAUUCUUAUGACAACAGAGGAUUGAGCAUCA | 0.126 ratio |
| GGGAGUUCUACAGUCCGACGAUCUGUUUUGCACGGAUGGUUGGAAAUAGUGGAAAAGUCAUUGGAAUUGAUCACAUUAAAGAACUAGUAGAUGACUCAAUAACUAAUGUCAAAAAGGAUGACCCAAUGCUCCUGUCCUCGGGGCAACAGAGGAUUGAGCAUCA | 0.183 ratio |
| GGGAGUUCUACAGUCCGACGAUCCGUUCUGCAUUAAGCCCCAGGUUCUCUUCUGGCUUUGAAAGGGCCCGAGUGCUCCCAGUGUAGCUUCGUCACAUCGUCACGAGCCCCUGUGGUCAUGGGCGACCUCACACCUCCCUCCCUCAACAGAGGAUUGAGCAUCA | 0.156 ratio |
| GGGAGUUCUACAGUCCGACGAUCUUCCUGCUCGCAUGCUGGACUUUUGGCACAUCUGUCCCCAGUGGCCUCUUCGUGCCUUCCCUGCUGUGUGGAGCAGCUUUUGGACGUUUAGUUGCCAAUGUCCUGAAAAGCUACAUUGGACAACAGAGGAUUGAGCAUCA | 0.113 ratio |
| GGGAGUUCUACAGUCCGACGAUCGGUGUCUCGUGGCCCCGUGAACUCACCGCUCACCCUCCUGAACCCCCCCCCCCCGCCUUUUUUUAAAAUUCACCCCCAUCCACAGUUGUCAGUUGUGAAGAGGGGCCAGAUGACACCCUACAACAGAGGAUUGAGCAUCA | 0.661 ratio |

Set 3 — technique: RNA Bind-n-Seq; form: RNA; matrix: in vitro; concentration: 365 nM; baseline: no-protein control; direction: higher = stronger binding
Target: RNA binding protein fox-1 homolog 2, RRM domain, GST-SBP tag (RBFOX2, Homo sapiens, UniProt O43251-10, residues 100-194)
Setting: natural RNA segment, single round, ends assumed
| Oligonucleotide | RBNS enrichment (R) |
| --- | --- |
| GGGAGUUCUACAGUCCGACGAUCUGGAUACAUGUUGAAAGAGCUCUUUGGUACACGGAAGUGACAUCUUUGGGGUCAGUGUUACGAGGUGGCCUGUGGAGGUCUUCCGGUCCUGUUGGGAUCAUUUGUGAAUAUGGAAUUCUCGGGUGCCAA | 0.661 |
| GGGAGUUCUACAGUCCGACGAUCCUUUUCCUCUUAAUACUCAGCUCUCAACACAGGCGGGUGGGCAGAGGAAGAUACCAUUCAGGAACCUGGACCAGAGGUGGUAAUAAAAGGGCUGGGUCAUUGGGCCUGCAUGGAAUUCUCGGGUGCCAA | 2.68 |
| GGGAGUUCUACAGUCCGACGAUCUCUGUUCAAAUUUGCUUCCUUCAUGUCUUUUGAGACAGCAUCUCCUGAUUGAGUUCGCCUCACACCAGCAUCUUCCCUUAUUCUGUCUGCCUAAGCACAUAACUUUCAAGUGGAAUUCUCGGGUGCCAA | 0.731 |
| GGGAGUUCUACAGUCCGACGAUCUGGCCAUGUAGAGGAAAAGAUAUGGAGUUAUGUGGAUUUCAUCACUAGUAUGUGUGCGUGAGCUGGUCAGUUGCCAAAGGAGGAAAUAAGGUUAGAAGCCUGAACCGUUAUGGAAUUCUCGGGUGCCAA | 3.52 |
| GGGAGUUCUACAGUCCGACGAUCUCUGCCUCGCAAGAAGUCUCAGUGGAACUGACAGUUCCAAUAUAAUUACCCUCUCCUUUAUAAGAGCUUUCCUCUUUUAUCUUUUACCUGUAGAGACCUGAAAAUCCCACUGGAAUUCUCGGGUGCCAA | 0.54 |
| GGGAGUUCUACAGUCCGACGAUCUUUUCAUUGAGUUAUUUCCUCAUUCUUUUAAAAAAUAAGGGACUAUAAAUCAGUUAUGUAGUAUCUUUUGUUUUUGUAGCUGAUUCCUUAACUUUCUUGUAUGCCUCUAGUGGAAUUCUCGGGUGCCAA | 0.695 |
| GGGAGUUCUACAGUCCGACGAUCUUUCGCGGACGCGCCUACCUAAGUACCAUUUACAGAAAGUGACUCUGGCUGUCAUUAUUUUGUUUAUUUGUUCCCUAUGCAAAAAAAAAAUGAAAAUGAAAAAAGGGGGAUGGAAUUCUCGGGUGCCAA | 0.477 |
| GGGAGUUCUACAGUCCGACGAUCAAUCUCUAUCCUCGUGUGCUUCAAGCUCUAUAACAACCAUAUCAUGAGGUAUUUGCAAAGGAAAACAUUUUCUCCCAUGAUUUGUUUUUUGUUGUUAUUGUUGUUGGGUUUGGAAUUCUCGGGUGCCAA | 0.406 |

Mixed results
| Substance | target | assay | system | conditions | scale | endpoint | result |
| --- | --- | --- | --- | --- | --- | --- | --- |
| PhoQ, residues 284 288 289 292 302 303 NSMLDC | PhoP, residues 12 14 15 18 19 NMSFL (Escherichia coli, UniProt P23836) | Sort-seq, measured: YFP reporter | E. coli | PhoQ-PhoP variant library, added: 10 µM Mg2+ | baseline: high Mg2+ state, higher = stronger signaling | fold induction | 8.97 |
